Measurements collected from several papers.
Every numbered part comes from another study and shows a few of its results, in no order.
Sequence of UniProt P10721 (whole entry, unmodified, looked up): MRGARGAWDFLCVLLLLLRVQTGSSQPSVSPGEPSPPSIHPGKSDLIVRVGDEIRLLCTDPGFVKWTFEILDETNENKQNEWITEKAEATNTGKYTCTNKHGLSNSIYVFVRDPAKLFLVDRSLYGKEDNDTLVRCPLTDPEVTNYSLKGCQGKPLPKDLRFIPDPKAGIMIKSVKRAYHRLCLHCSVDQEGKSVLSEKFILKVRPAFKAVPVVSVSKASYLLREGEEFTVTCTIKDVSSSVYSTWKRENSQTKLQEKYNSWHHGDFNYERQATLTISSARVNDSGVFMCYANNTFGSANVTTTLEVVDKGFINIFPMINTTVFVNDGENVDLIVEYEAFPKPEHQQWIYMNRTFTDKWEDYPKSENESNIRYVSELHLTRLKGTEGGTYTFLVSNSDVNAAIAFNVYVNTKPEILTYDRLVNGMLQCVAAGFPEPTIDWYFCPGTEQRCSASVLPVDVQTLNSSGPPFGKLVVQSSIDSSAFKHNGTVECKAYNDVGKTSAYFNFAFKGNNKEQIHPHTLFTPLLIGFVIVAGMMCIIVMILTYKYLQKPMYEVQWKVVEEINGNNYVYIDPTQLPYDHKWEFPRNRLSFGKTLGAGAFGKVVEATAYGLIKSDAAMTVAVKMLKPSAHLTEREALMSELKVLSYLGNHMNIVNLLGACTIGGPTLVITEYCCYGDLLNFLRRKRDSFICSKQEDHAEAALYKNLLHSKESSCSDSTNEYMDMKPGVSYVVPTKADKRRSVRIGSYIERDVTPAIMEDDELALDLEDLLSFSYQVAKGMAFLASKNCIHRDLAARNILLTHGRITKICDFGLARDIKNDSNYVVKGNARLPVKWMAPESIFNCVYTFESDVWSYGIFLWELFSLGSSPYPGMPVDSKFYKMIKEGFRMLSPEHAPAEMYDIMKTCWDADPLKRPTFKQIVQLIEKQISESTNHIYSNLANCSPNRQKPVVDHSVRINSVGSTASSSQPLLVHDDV
Sequence of UniProt Q13163 (whole entry, looked up): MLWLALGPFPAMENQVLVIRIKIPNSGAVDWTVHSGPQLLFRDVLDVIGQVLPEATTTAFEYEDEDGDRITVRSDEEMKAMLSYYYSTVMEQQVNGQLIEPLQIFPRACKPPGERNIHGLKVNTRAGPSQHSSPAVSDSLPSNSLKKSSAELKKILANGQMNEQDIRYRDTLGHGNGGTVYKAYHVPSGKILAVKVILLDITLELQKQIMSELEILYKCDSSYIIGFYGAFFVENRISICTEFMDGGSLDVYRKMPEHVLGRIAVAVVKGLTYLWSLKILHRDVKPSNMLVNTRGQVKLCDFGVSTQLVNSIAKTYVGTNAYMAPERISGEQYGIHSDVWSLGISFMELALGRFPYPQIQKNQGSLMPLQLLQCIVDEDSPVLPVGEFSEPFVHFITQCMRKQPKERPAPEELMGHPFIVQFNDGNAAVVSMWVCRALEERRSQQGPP
Sequence of UniProt Q6PHR2 (whole entry, looked up): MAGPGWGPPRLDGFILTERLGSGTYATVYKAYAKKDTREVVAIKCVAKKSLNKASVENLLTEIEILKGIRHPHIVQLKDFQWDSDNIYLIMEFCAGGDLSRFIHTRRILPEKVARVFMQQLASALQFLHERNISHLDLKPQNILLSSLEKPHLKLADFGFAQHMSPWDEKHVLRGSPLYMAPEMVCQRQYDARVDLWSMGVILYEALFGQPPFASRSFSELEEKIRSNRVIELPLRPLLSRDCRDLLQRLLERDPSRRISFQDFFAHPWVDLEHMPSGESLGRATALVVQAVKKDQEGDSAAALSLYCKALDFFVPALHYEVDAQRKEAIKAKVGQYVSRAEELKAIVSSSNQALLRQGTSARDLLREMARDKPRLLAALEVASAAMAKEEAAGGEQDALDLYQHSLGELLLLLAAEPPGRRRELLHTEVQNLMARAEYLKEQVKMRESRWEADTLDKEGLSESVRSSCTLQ
Sequence of UniProt P11362 (whole entry, looked up): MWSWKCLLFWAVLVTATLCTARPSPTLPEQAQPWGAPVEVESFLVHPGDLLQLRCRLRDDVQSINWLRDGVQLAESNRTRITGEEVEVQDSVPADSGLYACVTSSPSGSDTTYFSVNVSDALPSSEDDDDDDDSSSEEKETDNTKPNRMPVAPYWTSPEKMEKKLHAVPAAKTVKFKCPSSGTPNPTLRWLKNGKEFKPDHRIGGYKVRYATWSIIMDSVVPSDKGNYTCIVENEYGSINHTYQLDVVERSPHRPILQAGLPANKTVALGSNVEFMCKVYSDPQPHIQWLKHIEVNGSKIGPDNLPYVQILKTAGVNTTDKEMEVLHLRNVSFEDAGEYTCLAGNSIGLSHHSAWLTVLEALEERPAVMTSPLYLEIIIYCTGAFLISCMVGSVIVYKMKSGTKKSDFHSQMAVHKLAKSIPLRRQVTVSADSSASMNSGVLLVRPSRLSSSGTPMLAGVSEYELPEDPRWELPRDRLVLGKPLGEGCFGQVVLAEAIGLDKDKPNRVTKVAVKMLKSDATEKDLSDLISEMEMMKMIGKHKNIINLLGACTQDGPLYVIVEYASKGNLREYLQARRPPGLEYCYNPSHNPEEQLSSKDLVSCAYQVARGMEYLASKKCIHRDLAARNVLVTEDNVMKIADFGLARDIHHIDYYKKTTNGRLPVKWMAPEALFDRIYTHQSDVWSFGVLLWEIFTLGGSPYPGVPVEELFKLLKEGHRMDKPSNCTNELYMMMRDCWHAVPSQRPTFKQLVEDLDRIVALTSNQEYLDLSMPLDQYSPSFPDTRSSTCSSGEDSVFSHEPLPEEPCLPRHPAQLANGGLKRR
Sequence of UniProt Q9NRH2 (whole entry, looked up): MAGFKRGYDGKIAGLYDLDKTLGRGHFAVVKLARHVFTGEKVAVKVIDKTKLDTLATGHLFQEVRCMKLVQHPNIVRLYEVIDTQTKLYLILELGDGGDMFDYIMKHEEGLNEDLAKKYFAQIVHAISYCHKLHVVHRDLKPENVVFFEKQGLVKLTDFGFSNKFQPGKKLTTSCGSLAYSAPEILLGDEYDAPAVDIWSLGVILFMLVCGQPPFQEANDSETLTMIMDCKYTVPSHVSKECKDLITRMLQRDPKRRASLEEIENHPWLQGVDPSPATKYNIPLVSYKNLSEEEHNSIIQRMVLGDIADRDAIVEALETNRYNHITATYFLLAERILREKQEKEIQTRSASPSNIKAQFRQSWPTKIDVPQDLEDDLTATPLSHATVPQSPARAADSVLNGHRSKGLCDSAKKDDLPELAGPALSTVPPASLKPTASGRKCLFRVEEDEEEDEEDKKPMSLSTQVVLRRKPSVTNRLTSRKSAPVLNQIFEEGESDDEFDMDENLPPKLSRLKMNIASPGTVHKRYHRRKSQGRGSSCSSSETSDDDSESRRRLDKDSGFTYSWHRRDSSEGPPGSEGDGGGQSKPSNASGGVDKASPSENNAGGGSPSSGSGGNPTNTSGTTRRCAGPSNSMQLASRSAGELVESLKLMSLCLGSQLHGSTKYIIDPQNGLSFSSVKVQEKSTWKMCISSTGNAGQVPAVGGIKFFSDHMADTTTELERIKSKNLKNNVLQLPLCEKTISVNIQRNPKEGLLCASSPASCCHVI
Sequence of UniProt P51812 (whole entry, looked up): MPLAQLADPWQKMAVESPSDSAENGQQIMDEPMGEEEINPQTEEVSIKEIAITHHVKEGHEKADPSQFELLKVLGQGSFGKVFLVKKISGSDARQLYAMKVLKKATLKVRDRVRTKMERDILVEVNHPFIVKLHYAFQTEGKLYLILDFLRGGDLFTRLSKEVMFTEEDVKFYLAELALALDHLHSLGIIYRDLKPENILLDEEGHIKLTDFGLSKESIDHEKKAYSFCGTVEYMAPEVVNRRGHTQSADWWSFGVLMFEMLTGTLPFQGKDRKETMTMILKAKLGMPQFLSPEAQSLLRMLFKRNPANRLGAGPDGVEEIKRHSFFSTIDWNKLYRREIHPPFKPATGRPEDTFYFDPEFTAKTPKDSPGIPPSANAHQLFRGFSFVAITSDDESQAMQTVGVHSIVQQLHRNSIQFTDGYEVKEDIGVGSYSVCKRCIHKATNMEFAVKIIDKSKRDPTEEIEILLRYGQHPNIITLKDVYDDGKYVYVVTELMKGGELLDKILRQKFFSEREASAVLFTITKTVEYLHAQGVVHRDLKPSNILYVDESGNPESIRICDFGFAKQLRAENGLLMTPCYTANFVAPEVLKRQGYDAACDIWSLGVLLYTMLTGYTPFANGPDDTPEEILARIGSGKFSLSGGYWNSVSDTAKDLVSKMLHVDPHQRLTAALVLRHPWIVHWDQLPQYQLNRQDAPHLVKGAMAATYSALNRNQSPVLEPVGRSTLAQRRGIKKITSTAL
Sequence of UniProt P50613 (whole entry, looked up): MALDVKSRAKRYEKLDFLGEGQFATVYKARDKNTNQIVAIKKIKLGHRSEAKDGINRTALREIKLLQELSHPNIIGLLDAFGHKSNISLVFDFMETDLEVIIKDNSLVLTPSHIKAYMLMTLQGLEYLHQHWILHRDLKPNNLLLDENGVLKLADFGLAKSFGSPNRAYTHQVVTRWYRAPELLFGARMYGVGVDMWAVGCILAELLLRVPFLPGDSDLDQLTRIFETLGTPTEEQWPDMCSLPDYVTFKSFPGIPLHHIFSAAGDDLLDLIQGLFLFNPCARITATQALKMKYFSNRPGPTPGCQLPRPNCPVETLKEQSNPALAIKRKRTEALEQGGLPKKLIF

Block 1 — organism: Sarcocystis neurona; observed: parasite growth; concentration: 10 µM; time: 96 h; notes: first screen
Compound	inhibition [%]
NC[C@H]1CC[C@H](C(=O)Oc2ccc(CCC(=O)O)cc2)CC1	7.5
O=c1[nH]cnc2c1ncn2[C@H]1CC[C@@H](CO)O1	6.3
CCOC(=O)[C@@]1(CCCCCCOc2ccc(Cl)cc2)CO1	-19
CCCCN1CCCC1CNC(=O)c1cc(C#N)c2ccccc2c1OC (centres unmarked)	17.1
CNC(=C[N+](=O)[O-])NCCSCc1csc(CN(C)C)n1	-3.9
CCCc1c(OCCCCc2nnn[nH]2)ccc(C(C)=O)c1O	-10.5
COc1ccccc1OCC(O)CN1CCN(CC(=O)Nc2c(C)cccc2C)CC1 (centres unmarked)	11.2
NC(=O)c1cnccn1	-25.9
Clc1ccc(COC(Cn2ccnc2)c2ccc(Cl)cc2Cl)cc1 (centres unmarked)	-4.1
CC=CC(=O)N(CC)c1ccccc1C (mixture of isomers)	-9.9
CCCCC(=O)O[C@]1(C(=O)CO)CC[C@H]2[C@@H]3CCC4=CC(=O)CC[C@]4(C)[C@H]3[C@@H](O)C[C@@]21C	-2.1
CCN(CC)CCNC(=O)c1ccc(N)cc1	-6.9

Block 2 — observed: cell-free assay; method: competition with immobilised ligand; concentration: 1 µM
SMILES: CCC(=O)N[C@H]1CC[C@@H](C(=O)N(C)c2ccc(-c3nc4ccccc4o3)cc2)C1
target	remaining binding
CDK7 (Homo sapiens, UniProt P50613)	79%
Tyrosine-protein kinase ABL1, phosphorylated (ABL1, Homo sapiens, UniProt P00519, H396P)	88%
FLT3 (Homo sapiens, UniProt P36888, D835V)	73%
EGFR (Homo sapiens, UniProt P00533, T790M)	87%
CDK18 (Homo sapiens, UniProt Q07002)	100%
RPS6KB1 (Homo sapiens, UniProt P23443)	99%
Ribosomal protein S6 kinase alpha-3, N-terminal kinase domain (RPS6KA3, Homo sapiens, UniProt P51812)	88%
EPHA8 (Homo sapiens, UniProt P29322)	96%
SNRK (Homo sapiens, UniProt Q9NRH2)	100%
MAP2K5 (Homo sapiens, UniProt Q13163)	16%
FGFR1 (Homo sapiens, UniProt P11362)	100%
MYLK3 (Homo sapiens, UniProt Q32MK0)	97%
EGFR (Homo sapiens, UniProt P00533, A750P/del747-749)	97%
Non-receptor tyrosine-protein kinase TYK2, JH1 (TYK2, Homo sapiens, UniProt P29597)	83%
EGFR (Homo sapiens, UniProt P00533, L861Q)	100%
Ribosomal protein S6 kinase alpha-6, N-terminal kinase domain (RPS6KA6, Homo sapiens, UniProt Q9UK32)	82%
CAMK2B (Homo sapiens, UniProt Q13554)	94%
PIK3CA (Homo sapiens, UniProt P42336, Q546K)	91%
KIT (Homo sapiens, UniProt P10721, V559D/V654A)	89%
PLK1 (Homo sapiens, UniProt P53350)	97%
CHEK2 (Homo sapiens, UniProt O96017)	100%
ULK3 (Homo sapiens, UniProt Q6PHR2)	67%
CDKL2 (Homo sapiens, UniProt Q92772)	100%
Tyrosine-protein kinase ABL1, non-phosphorylated (ABL1, Homo sapiens, UniProt P00519, T315I)	86%
MAP3K2 (Homo sapiens, UniProt Q9Y2U5)	87%

Block 3 — observed: enzyme activity; action: inhibitor; concentration: 10 µM
Target: Calcium/calmodulin-dependent protein kinase type II subunit alpha (CAMK2A, Homo sapiens, UniProt Q9UQM7)
Sequence of UniProt Q9UQM7 (whole entry, looked up): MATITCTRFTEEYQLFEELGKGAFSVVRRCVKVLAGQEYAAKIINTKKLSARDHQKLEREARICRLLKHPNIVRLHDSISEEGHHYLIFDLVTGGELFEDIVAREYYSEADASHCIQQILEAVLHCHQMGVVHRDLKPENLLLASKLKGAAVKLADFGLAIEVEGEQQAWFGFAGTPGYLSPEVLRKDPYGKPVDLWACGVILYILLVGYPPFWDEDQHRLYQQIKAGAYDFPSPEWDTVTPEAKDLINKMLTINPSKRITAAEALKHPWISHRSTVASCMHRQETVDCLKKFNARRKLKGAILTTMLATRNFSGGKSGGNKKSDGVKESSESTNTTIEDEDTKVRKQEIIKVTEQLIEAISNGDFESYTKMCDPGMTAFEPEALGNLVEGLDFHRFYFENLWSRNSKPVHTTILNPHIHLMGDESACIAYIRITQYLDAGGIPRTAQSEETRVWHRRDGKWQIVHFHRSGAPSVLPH
SMILES	inhibition
C=C1C(=O)O[C@H]2[C@H]1CC/C(C)=C/CC[C@@]1(C)O[C@@H]21	-1%
CO[C@@H]([C@@H]1OC(C(=O)O)=C[C@H](N=C(N)N)[C@H]1NC(C)=O)[C@H](O)CO	-9%
CC(=O)O[C@H]1[C@H](O[C@H]2CC[C@]34C[C@]35CC[C@]3(C)[C@@H]([C@@]6(C)CC[C@@H](C(C)(C)O)O6)[C@@H](O)C[C@@]3(C)[C@@H]5C[C@H](O[C@@H]3O[C@H](CO)[C@@H](O)[C@H](O)[C@H]3O)[C@H]4C2(C)C)OC[C@@H](OC(C)=O)[C@@H]1O	17%
CCc1ccc(Cc2ccc3c(c2)[C@]2(OC3)O[C@H](CO)[C@@H](O)[C@H](O)[C@H]2O)cc1	-8%
COc1ccc2c(C(=S)N(C)CC(=O)O)cccc2c1C(F)(F)F	0%
Oc1cccc(O)c1O	-67%
CC(=O)Nc1ccc(OC(C)=O)cc1	-2%
COC1=C(OC)C(=O)C(CCCCCCCCCCO)=C(C)C1=O	3%
O=C(O)[C@@H](S)[C@@H](S)C(=O)O	-6%
COc1cc(O)cc(CCc2cccc(O)c2)c1	4%

Block 4 — medium: plasma
Compound: O=C1CCC(N2Cc3cc(C4CCN(Cc5ccccc5)CC4)ccc3C2=O)C(=O)N1 (centres unmarked)
species	route	dose	time	concentration [ng/mL]
male CD-1 mouse	oral	3 mg/kg	4 h	35.8
male CD-1 mouse	intravenous	1 mg/kg	4 h	21.2
male Sprague-Dawley rat	oral	3 mg/kg	4.98 min	3.86
male Sprague-Dawley rat	intravenous	1 mg/kg	4 h	21.4
male Sprague-Dawley rat	intravenous	1 mg/kg	30 min	87.9
male CD-1 mouse	intravenous	1 mg/kg	6 h	13.7
male Sprague-Dawley rat	oral	3 mg/kg	8 h	7.06
male Sprague-Dawley rat	oral	3 mg/kg	2 h	72.7
male CD-1 mouse	intravenous	1 mg/kg	4.98 min	204
male Sprague-Dawley rat	oral	3 mg/kg	15 min	24.8
male Sprague-Dawley rat	oral	3 mg/kg	30 min	48.9

Mixed results
Structure (SMILES)	method	species	dose	endpoint	value
CC(C)n1cnc(-c2ccc(F)cc2)c1-c1ncc(C(=O)Nc2ccc(N3CCN(C)CC3)cc2)[nH]1	phase 2a clinical trial	patients with idiopathic pulmonary fibrosis	30 mg once daily	patients with Arthritis TEAE	0%

A few entries again (block 1):
Compound	inhibition [%]
CNC(=C[N+](=O)[O-])NCCSCc1csc(CN(C)C)n1	-3.9
CC=CC(=O)N(CC)c1ccccc1C (mixture of isomers)	-9.9
CCCCC(=O)O[C@]1(C(=O)CO)CC[C@H]2[C@@H]3CCC4=CC(=O)CC[C@]4(C)[C@H]3[C@@H](O)C[C@@]21C	-2.1
CCOC(=O)[C@@]1(CCCCCCOc2ccc(Cl)cc2)CO1	-19
NC(=O)c1cnccn1	-25.9
O=c1[nH]cnc2c1ncn2[C@H]1CC[C@@H](CO)O1	6.3
Clc1ccc(COC(Cn2ccnc2)c2ccc(Cl)cc2Cl)cc1 (centres unmarked)	-4.1
